Results gathered from unrelated publications.
Every numbered part comes from another study and shows a few of its results, in no order.

Sample 1 — method: RNAcompete; form: RNA; matrix: in vitro; concentration: 20 nM; notes: 7-mer, probes averaged, single round; baseline: mean of 7-mers; reading: higher = stronger binding
Target: PABPC1L2, full length, GST fusion (mouse, UniProt A0ABA7IW68)
Target sequence (chain): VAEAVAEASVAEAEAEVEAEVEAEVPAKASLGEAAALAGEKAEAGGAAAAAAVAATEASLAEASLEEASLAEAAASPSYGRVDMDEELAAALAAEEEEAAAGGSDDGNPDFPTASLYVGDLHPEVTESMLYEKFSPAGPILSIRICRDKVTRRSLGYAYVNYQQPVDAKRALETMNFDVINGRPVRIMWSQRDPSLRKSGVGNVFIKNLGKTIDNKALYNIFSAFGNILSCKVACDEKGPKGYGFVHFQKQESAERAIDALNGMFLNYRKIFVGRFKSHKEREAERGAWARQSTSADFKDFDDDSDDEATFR
| Sequence | 7-mer Z-score |
| --- | --- |
| AUGUACA | -0.0826 |
| GACCCGG | -0.237 |
| CUAACCC | -0.371 |
| UAGGUCU | -0.119 |
| CAUCAUU | -0.273 |
| GCGCCAC | -0.122 |
| UUCUCGU | -0.418 |
| UUCGCGG | -0.333 |
| UUCGAGA | -0.0971 |
| UCCGAAA | 0.695 |
| AGCCGGU | -0.0989 |
| GGGGAGA | 0.49 |
| GCGGGAU | 0.303 |
| CAUUCCA | -0.28 |
| AAUUGGC | 0.365 |
| ACGGGUU | -0.0754 |
| GCCGGUC | -0.224 |
| GCGACAU | 0.0315 |

Sample 2 — method: RNA Bind-n-Seq; form: RNA; matrix: in vitro; concentration: 365 nM; baseline: no-protein control; reading: higher = stronger binding
Target: RNA binding protein fox-1 homolog 2, RRM domain, GST-SBP tag (RBFOX2, Homo sapiens, UniProt O43251-10, residues 100-194)
Notes: natural RNA segment, single round, ends assumed
Constant ends, left off below: GGGAGUUCUACAGUCCGACGAUC … UGGAAUUCUCGGGUGCCAA
Target sequence (chain): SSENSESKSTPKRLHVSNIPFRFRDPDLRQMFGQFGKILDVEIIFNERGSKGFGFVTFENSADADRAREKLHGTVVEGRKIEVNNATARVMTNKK
| Sequence | RBNS enrichment (R) |
| --- | --- |
| UCUUUAUUAGUCUUUUUAAUGCCUCUAACCCUGUGGAAGCUGUCUGCACGCAGUAUCCCACUGUAGAGGAGAGCUCAGAGUGGGGGAGUAGGAGCCCUUGCUUGGGGUAC | 0.529 |
| GGCGUUUUUAUUAGCGGUCCUGAGUAAUUUCCCUUGGCAAAAUUCCCAGUUUUGCCACUCUCUGGAGCCAGAUCCUGGGAGCUGUCAGCAAGGAGCAGGUAAGUGAGCAG | 0.39 |
| UUCCCUUCAGUUAAAGGGUUUCUUUUUCAGAGGGCCUAGACUGUGCUGACCUUGUGUGACCAGAGAUUUAAAGAUGAAAAAAACAAUAAAUGUGUUUACUUCUGCACCAC | 0.235 |
| GCAACCUCCCAUUUUAGAUGUUUAAAGGACCCUAUAUGUGGCAUUCCUUUCUUUAAACUAUAGGUAAUUAAGGCAGCUGAAAAGUAAAUUGCCUUCUAGACACUGAAGGC | 0.561 |
| CUCCUGCUUCUCCUUCCACUUGAGCUGGUUUGAGACUGGUUUCUGGAGGCUGUGGGGUGUAACUUUGGGUUUGUAUUUUUUCUGCUCAUCUUUCUGCCUGUCACCGGGUG | 0.343 |
| UCAUUCAGAGGACUCAAGUACUAGUGCUAGGUCUCUUUCCUUCCACUCUCUCUCUCUCUCUCUCUCUCUCUCUCUCUCUCUCUCUCUCUCCUAAGUACUUAUUCAUGCCU | 0.796 |
| UAGGAUGCAUAGCUGCCCCUAGGGUACGUAGCUGAACACUGACAAUGGCGUUCUUCUGAAAGAGCCACGUUUGGGUUUUAUUUCUUUGUCACAUGAUUUCUUUUCUGGAU | 0.319 |
| CCCGCAGGCAAAUUGGAUGGGCGUCUGGCCGCCGUGGAGUUCCGGUGACCCAUUUCCCCAGCCGUGUCGUCUCCAGGACCACCCGAUGGAAAUAACAGGCGGGCUUCACG | 0.586 |
| GGGUUAGGGAUGGGCGCUUUCCUCUCUGGUUGUGAACGAAAGGAAGGAACAUCUUUCUAUGGCUAACAAAAACUAAAGGGGAAGUGAGGAAACAGGAAGAAGUAUGGUGG | 0.867 |
| CCUGGCCCUCCACCUGCCUCCAGGCCACGAAAUGGGAAUUCCAGCACUAAGCCAGGCACCGGGCAGAAGCUGGGCCUUCCGCCUCCCUUGGAUGGGGUCAAGAGGCCAGG | 0.692 |
| GUACUGGCCACGAAAGGGUCUUGUGUAAAGUUACAUCAUCGGAGAGCGGUUUUUGAGCUUUCAAUAAGCUAUAGCUUUGUUUAUUUCACCUGUUCACUUACUGUAUAAUU | 0.593 |
| UUUCCACUCUGCACAUUGUAGAGGGGACACCGAAGGCCCAUGGGUCCCUAAUUAAAGAAGUUGAGUGAAUUUGCCUUCGUUCAACCAGGGACCUAUCUCACUCCCUCCCA | 0.252 |

Sample 3 — method: protein binding microarray; form: double-stranded DNA, one strand shown; matrix: in vitro; concentration: not given; baseline: not given; reading: higher = stronger binding
Target: Histone acetyltransferase KAT6A, winged helix 2, GST fusion (KAT6A, Homo sapiens, UniProt Q92794, residues 85-181)
Notes: 8-mer, flanks averaged, mean of 2 arrays, mostly near background
Construct (chain): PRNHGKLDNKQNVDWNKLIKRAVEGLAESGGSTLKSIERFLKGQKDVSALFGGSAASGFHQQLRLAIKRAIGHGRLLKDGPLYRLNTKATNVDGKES
| Sequence | E-score |
| --- | --- |
| AACGTGAG | -0.042 |
| AACTCCAC | 0.0174 |
| GCCCTCCA | 0.0231 |
| CGGTGAAG | -0.0396 |
| CAAACGCA | 0.00168 |
| CAGTGAGG | 0.0312 |
| CCCGCGAA | 0.144 |
| CCAGGAAG | -0.119 |
| ATCTCGAA | 0.139 |
| CGCGGATC | 0.0731 |
| CCCCGGCG | 0.189 |
| AAACGACT | 0.0395 |
| ATTCCTGC | 0.0515 |
| CAACACCC | -0.156 |
| ACGTCAGT | -0.103 |
| ATCTATTC | -0.0861 |
| GATTCAAC | 0.0245 |
| TAGAATCA | 0.0596 |
| CCACCGAA | 0.128 |
| ATTCTATC | 0.0285 |
| AATACTAA | 0.00278 |
| AGCATTAT | 0.066 |
| GGACCGTA | -0.138 |

Sample 4 — method: competition protein-binding microarray; form: double-stranded DNA, one strand shown; matrix: in vitro; concentration: 2 µM; with: Cbf1 competitor, 0.05 µM; reading: higher = stronger binding; constant ends, left off below: … GTCTTGATTCGCTTGACGCTGCTG
Target: Phosphate system positive regulatory protein PHO4, full length, GST-tagged (PHO4, Saccharomyces cerevisiae, UniProt P07270, residues 1-312)
Notes: whole 60-bp probe, lowest competitor level
Residues (chain): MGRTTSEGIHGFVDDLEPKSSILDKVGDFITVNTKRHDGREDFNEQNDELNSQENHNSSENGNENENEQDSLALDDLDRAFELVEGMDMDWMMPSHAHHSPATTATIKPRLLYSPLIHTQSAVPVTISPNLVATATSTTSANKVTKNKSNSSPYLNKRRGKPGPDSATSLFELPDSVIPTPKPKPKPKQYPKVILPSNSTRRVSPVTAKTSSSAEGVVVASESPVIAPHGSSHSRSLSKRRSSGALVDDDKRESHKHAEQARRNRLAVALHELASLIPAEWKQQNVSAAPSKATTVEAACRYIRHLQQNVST
| Sequence | fluorescence intensity |
| --- | --- |
| CAGAACGCCGCCTTCCCCGTGCGATGCAGGGTGCTA | 8070 a.u. |
| ATTTTTCTTTCGAGTCACGTCACCGCTACTAATGTT | 4790 a.u. |
| CTTTCCCGATCTTTTCACGTGCCGTTAGCACATTTG | 14300 a.u. |
| TCGGCCATTGAGTTCCACGTTTAATACCGCCAGAGT | 9830 a.u. |
| TAACTAATAAGTAGTCACCTGACTGTGATATAAATT | 4040 a.u. |
| CGGGGTTAAGTTTGACGTGTGGGTGGCTTGCAGCAG | 6170 a.u. |
| GGAAAAGGAAAGCCAAATGTGACGGACTCAGACTAC | 4090 a.u. |
| GCAAACGACGAGCTTCACGTTCAGATTCCATTAGAA | 5470 a.u. |
| CCTTTTCAATGAAAGCACGTTACTGAATTCAGAGAA | 11600 a.u. |
| GATGATGACAAATTCAGCGTGAGGACATCAACTCCC | 3930 a.u. |
| TTTTTTGAGACTTACCTCGTGTTGGTGTCTCCCTGG | 9160 a.u. |
| GTCTTGTCTCATTGCCTTGTGGGTGTCCCCACTTCA | 5790 a.u. |
| CTAACGAAGGTTTGTTACGTGGGTGACAAGCCAAGT | 6330 a.u. |
| AGTTCAACAAAACCAAACATGACAATACCACTTATG | 5120 a.u. |
| TGCGCAACAACTTTTCACGTGTTATTATGTCTAGAA | 14700 a.u. |
| ATTCGCATCTCTGGACACGTGCTTTATGTAGTTGAC | 19800 a.u. |

Sample 5 — method: RNA Bind-n-Seq; form: RNA; matrix: in vitro; concentration: not given; notes: RNA with constant flanks, ends assumed; baseline: input RNA pool; reading: higher = stronger binding
Target: RING finger protein unkempt homolog, zinc fingers 1-6, GST-SBP tag (UNK, Homo sapiens, UniProt Q9C0B0, residues 30-357)
UniProt Q9C0B0, sequence (30-357, looked up): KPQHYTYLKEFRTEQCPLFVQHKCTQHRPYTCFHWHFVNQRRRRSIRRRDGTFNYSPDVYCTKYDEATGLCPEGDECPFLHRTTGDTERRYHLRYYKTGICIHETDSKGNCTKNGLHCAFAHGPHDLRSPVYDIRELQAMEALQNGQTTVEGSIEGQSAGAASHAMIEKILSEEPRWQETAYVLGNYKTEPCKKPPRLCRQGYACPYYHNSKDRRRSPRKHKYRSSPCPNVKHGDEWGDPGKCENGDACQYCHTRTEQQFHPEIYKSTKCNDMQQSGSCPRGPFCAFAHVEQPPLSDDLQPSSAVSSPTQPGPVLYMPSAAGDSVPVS
Constant ends, left off below: GGGAGUUCUACAGUCCGACGAUC … CAACAGAGGAUUGAGCAUCA
| Sequence | bound/input enrichment [ratio] |
| --- | --- |
| AAGUUCACUGGAAGUGAGAUUCGGGUGAGGGAUGACAAGAUGCCAUUGGCGCACCUUGCAACCGCUGUUGAAGCAGUUGGUUGGGCCCAUCCAGACACGAUCUGUCUCAUGGUCGCAAAC | 0.101 |
| GUUCCGGAAAUCAUGGAUCGGAUCUACAAAAAUGUCAUGAAUAAAGUCAGUGAAAUGAGCCGUUUUCAACGUAAUCUGUUUAUUCUGGCCUAUAAUUACAAAAUGGAACAGAUUUCAAAA | 0.242 |
| AGCAAAAGAGCCAAGCAGUAGCAAUGUUUGUUUUUUUUUUUUUUUGUAAAUGUAAAAAUAAUCCGCUCUAGACCUGUUUCCUUUGAUUUAAAAAUAAAGAAUGCCUCAGUGCUGCUCUCA | 0.319 |
| GGCUGUGUAGGGGAGGAAGGGGUGCAUGCAUGUCCCCCACCCUCCACAGUCUUCCUUGCCUUCCGAGUGACCCUGCAGAGUCACUCAGCCAAAUCUGUCUGCUGCUCCCUCUCCUCAGCC | 0.167 |
| AAUGCUAAAGGUAUAUCGUAAGGGUAGUGUUUGUUUUUGAACGAUAAUUUAGAAGUUCUCACCGAAAGCGUAUAACAUAGGUCUUCAGAAACUAUAAAAGAAUUUUCAUAUAGUAUUAAA | 10.7 |
| UUGCGCCAGAGAACAGAAAACAUAGAUAUAAAAAAAUACUGUGUACAUUAUCUUGAGGAUGCCGGUUCUUUUGAAUACACUCGUAAUACCCUUAAAGAGCUUGAAGCUAAAGCCUAUAAA | 0.589 |
| UUUUCUUUUUCUUUUUUCUUUCUUUUUUUUUUUUUUUUUUUUUUUGAGUUGUUGUUUGUUUUCCGAUCCACAGUACAUGAGAAUCCUUUUUUGACAAGCCUUGGAAAGCUGACACUGUCU | 1.92 |
| GCUUUUCAAGCCAAGGAUGUGGAAGGAUCUACUUCUCCUCAAAUAGGAGAUAAGGUUGAAUUCCGUAUUAGUGACAAACAGAGGCCUGGACAGCAGAUUGCAACUUGCGUGAGACUUUUA | 0.199 |
| CUUGCAGUGAGGAAAAGAACAAUUAUUGCUCUUGGCCACCUAGUUAUGAGCUGCGGAAAUACCGUUUUUGUAGACCUUAUUGAACAUCUGUUGUCAGAGUUGUCCAAAAAUGACUCCAUG | 0.297 |
| UGUCUUGAUGACACAACAGUAAAAUUUGAAAUAUGGGAUACAGCUGGUCAAGAACGGUAUCACCGCUCCGCACCAAUGUACUACCGAGGAGCACAAGCAGCCAUAGUUGUGUAUGAUAUC | 0.227 |
| UCAUCAAUUGCAACUUCUUCAGUGAAAGGUCUUUCAACUACAGGAAACUCGUCUCUUAACCGUACAUCCAACACUAAAGUGUCAGCGAUACCUACCAAUAUGGCUGCCAAGAAAACAUCU | 0.126 |

Some of these lines once more (sample 4):
| Sequence | fluorescence intensity |
| --- | --- |
| CGGGGTTAAGTTTGACGTGTGGGTGGCTTGCAGCAG | 6170 a.u. |
| CTTTCCCGATCTTTTCACGTGCCGTTAGCACATTTG | 14300 a.u. |
| GTCTTGTCTCATTGCCTTGTGGGTGTCCCCACTTCA | 5790 a.u. |
| CAGAACGCCGCCTTCCCCGTGCGATGCAGGGTGCTA | 8070 a.u. |
